# Measurements of several laboratories.
# Parts stem from different laboratories: compare values within a part only.

# Study 1
# Target: Histone acetyltransferase KAT6A, winged helix 1, GST fusion (KAT6A, Homo sapiens, UniProt Q92794, residues 1-85)
# Technique: protein binding microarray
# Form: double-stranded DNA, one strand shown
# Medium: in vitro
# Tested at: not given
# Notes: 8-mer, flanks averaged, mean of 2 arrays, mostly near background
# Relative to: not given
# Direction: higher = stronger binding
# Construct (chain): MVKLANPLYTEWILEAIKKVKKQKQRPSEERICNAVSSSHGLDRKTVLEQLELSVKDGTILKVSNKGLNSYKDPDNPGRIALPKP
Sequence,E-score
AGCTTCAG,-0.179
TAACAGCA,-0.0225
AAAGCTGA,-0.0613
CTTCCCAC,0.0364
CTGCAAAC,-0.218
CCAGGCAC,-0.209

# Study 2
# Target: Interferon regulatory factor 7, full length, phosphomimetic (IRF7, Homo sapiens, UniProt Q92985, residues 1-503, S101K/S471D/S472D/S475D/S476D/S477D/S483D/S484D/S487D)
# Technique: protein-binding microarray
# Form: double-stranded DNA, one strand shown
# Medium: in vitro
# Tested at: 250 nM
# Notes: 60-bp whole probe
# With: salmon DNA 0.4 mg/ml
# Relative to: random background probes
# Direction: higher = stronger binding
# Shared flanks, not repeated: GCCTAGCAC … GTCTTGATTCGCTTGACGCTGCTG
# Target sequence (chain): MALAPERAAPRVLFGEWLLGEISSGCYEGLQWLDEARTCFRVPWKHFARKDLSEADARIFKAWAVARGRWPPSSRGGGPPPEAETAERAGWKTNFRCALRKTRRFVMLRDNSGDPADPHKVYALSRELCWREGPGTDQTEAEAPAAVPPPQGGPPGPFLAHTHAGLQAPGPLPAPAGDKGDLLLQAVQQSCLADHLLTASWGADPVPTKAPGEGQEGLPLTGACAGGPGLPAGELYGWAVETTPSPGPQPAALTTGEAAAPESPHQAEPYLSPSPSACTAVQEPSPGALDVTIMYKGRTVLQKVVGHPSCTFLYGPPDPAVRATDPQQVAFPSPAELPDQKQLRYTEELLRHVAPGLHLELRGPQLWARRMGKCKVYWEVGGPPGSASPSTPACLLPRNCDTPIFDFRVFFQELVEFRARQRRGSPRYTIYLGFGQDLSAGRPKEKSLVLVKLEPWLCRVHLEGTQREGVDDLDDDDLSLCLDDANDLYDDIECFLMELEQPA
Sequence,log fluorescence
CTGGCCTGGGGTCTGCAGAGGTGCTAG,-0.833 z-score
TTATGTCTCGGTTTCGGTTAGTGCTAG,9.92 z-score
TCATGTGTGCATCTATCACTGTGCTAG,-0.375 z-score
TTAGGTTTCGGGTTACGGTTAGTGCTA,12.9 z-score
TTAGGTTTCAGTCTCGATTAGTGCTAG,3.16 z-score
TTAGGTCTCGGTCTCGGGTAGTGCTAG,1.68 z-score

# Study 3
# Target: RING finger protein unkempt homolog, zinc fingers 1-6, GST-SBP tag (UNK, Homo sapiens, UniProt Q9C0B0, residues 30-357)
# Sequence of UniProt Q9C0B0 (30-357, looked up): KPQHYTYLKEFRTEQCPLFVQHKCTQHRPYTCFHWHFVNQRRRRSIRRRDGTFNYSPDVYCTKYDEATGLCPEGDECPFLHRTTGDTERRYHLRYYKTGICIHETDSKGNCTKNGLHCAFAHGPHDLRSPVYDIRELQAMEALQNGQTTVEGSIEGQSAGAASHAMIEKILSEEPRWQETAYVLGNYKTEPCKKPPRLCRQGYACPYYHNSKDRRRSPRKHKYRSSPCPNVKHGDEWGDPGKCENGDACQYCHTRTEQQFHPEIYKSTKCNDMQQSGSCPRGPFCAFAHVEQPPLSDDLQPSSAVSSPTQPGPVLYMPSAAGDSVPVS
# Technique: RNA Bind-n-Seq
# Form: RNA
# Medium: in vitro
# Tested at: not given
# Notes: RNA with constant flanks, human and mouse sites, ends assumed
# Relative to: input RNA pool
# Direction: higher = stronger binding
# Shared flanks, not repeated: GGGAGUUCUACAGUCCGACGAUC … CAACAGAGGAUUGAGCAUCA
Sequence,bound/input enrichment [ratio]
GUUCAAUAUAUUUAUAUGUACAUGCAUACAUAUAUAUCCCUUUACAUAUAUAUAUGUAUGUUGGUGUGAGUGUGUGUGUAUGUGUGGGUGUGUGUUGCAUACACAAAAUCAGGCACUUAC,0.321
AAGGAUAAUUUCCAGCAGACUCUUGUAAAUCGUGAUGGUGCCAAAAAAUUUCCCAAAUCAGUUAAAAAGGAAGAUCUUGAAAGUCAAAAUCAAAGGAAAUUUUGGAAAAAGAAGAUGGUU,0.261
AAUUUUGGAGGGCUGUGAUUUUUCCAGUAUUAAACAUGCAUGCAUUAAUCUUGCAGUUUAUUUUCUCAUUGUGUAUGUAUAUAUCGCUUUUCUCUGCAGCACGAUUUCUCUUUUGAUAAU,0.211
UCCGGGCAGAAUGAGGAGUCUCCUCGGAAACGAAAAAAGGCCACGGAAGCCAUAGACUCUCUUAGGAAAUCUAAACGUCUUCGGAAUAGAAAGUAAAUUGGAAUGUGGUUCUAGUUCCAG,4.65
GUAGAAUUUAUUCUGUCUUUCAUUGACCACAUUGCUGGAGAUGAGGAUCACACAGAUGGAGUAGUAGCUUGUGCUGCUGGACUAAUAGGGGACUUAUGUACAGCAUUUGGGAAGGAUGUA,0.32
CAACAGCUACUGGAUACUGAUAGCUAUCAAACCUCAAAUUUAAAGAUUUUCCUUCAUGGAAAAGUUACUAUACUUUGCAAGAAACCACUGAACGUUGUCAUUGGAUAUUUUUUCAGCAAA,0.238

# Mixed results
Molecule,target,assay,system,setting,scale,quantity,value
"PhoQ, residues 284 288 289 292 302 303 TLSLKA","PhoP, residues 12 14 15 18 19 NQGLL (Escherichia coli, UniProt P23836)","Sort-seq, item: YFP reporter",E. coli,"PhoQ-PhoP variant library, with: 10 µM Mg2+","relative to: high Mg2+ state, higher = stronger signaling",fold induction,3.36

# Some of these lines once more (study 2):
Sequence,log fluorescence
TTAGGTTTCGGGTTACGGTTAGTGCTA,12.9 z-score
TTAGGTTTCAGTCTCGATTAGTGCTAG,3.16 z-score
